# Measured values from different studies.
# Every numbered part comes from another study and shows a few of its results, in no order. Positions count from the first letter of the parent shown.
# UniProt O15294, sequence (whole entry, looked up): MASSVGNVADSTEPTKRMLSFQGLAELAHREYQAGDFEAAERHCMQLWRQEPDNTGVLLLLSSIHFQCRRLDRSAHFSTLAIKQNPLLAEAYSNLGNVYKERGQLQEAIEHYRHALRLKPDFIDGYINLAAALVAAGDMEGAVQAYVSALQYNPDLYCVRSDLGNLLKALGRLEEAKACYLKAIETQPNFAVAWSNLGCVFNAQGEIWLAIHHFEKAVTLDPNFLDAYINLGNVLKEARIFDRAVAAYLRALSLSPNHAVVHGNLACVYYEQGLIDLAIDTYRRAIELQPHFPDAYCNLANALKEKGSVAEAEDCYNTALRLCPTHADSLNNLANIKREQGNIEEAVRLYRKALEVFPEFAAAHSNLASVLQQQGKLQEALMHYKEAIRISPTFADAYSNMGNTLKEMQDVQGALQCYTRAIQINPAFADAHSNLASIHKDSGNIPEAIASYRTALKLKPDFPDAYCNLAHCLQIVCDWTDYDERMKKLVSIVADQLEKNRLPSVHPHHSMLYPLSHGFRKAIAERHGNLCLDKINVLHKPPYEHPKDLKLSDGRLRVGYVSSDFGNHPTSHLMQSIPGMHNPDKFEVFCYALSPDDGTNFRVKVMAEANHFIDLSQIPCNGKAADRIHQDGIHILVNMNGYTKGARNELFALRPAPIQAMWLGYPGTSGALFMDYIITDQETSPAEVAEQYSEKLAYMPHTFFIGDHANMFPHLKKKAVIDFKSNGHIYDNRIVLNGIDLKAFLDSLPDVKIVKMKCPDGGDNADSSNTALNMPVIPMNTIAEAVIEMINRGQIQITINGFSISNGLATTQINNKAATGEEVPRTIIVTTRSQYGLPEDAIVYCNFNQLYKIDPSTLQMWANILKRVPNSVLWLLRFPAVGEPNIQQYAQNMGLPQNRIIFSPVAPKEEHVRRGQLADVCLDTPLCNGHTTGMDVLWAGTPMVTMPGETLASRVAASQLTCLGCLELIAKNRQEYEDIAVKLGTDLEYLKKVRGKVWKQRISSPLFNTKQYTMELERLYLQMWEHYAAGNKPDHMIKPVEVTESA

# Study 1 — method: protein-binding microarray; molecule type: double-stranded DNA, one strand shown; matrix: in vitro; concentration: 250 nM; notes: 60-bp whole probe; added: salmon DNA 0.4 mg/ml; reference: random background probes; direction: higher = stronger binding; constant ends, left off below: GCCTAGCAC … GTCTTGATTCGCTTGACGCTGCTG
# Target: Interferon regulatory factor 5, full length, phosphomimetic (IRF5, Homo sapiens, UniProt Q13568-2, residues 1-514, K96S/S451D/S453D/S456D/S462D)
Sequence,log fluorescence [z-score]
TTAGGTATGGGTTTCGGTTAGTGCTAG,7.89
TTAGGTATAGGGTATCGGTTAGTGCTA,1.93
TTAGTACTGAGTTTCGATTAGTGCTAG,8.67
GACGGCTTCGGGTTTCGGGACGTGCTA,1.72
TTAGGACTGCTTTTCATTTAGTGCTAG,0.604
TCTACTTCTCTTTTGGCTTTGTGCTAG,1.3
TCATCACTCAATCTCAAACTGTGCTAG,0.557
TCACATCTCATATAAATAACTGTGCTA,0.717

# Study 2 — Variant: E38S; method: DHFR PCA, deep sequencing; matrix: yeast; reference: wild-type fitted maximum; direction: higher = stronger binding
# Target: ABI1, truncated, D143A, DHFR fusion (Arabidopsis thaliana)
# Notes: methotrexate growth selection, single substitutions
# Starting sequence: PYL1, truncated, DHFR fusion (Arabidopsis thaliana); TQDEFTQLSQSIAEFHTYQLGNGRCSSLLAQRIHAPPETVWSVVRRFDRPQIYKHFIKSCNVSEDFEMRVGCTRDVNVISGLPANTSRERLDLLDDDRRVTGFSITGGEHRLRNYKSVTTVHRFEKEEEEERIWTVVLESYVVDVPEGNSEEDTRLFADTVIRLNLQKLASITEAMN
setting,relative binding score [%]
added: (+)-ABA 0.39 µM,13.9
added: (+)-ABA 58 µM,78
added: (+)-ABA 0.11 µM,9.72
added: (+)-ABA 2500 µM,94.9
added: (+)-ABA 1.4 µM,41.8
added: (+)-ABA 200 µM,96.3

# Further values, each from its own experiment
Molecule,target,test,system,setting,how to read,measurement,result
TGTKYVPMYQINPY,"OGT (Homo sapiens, UniProt O15294)","binding, phage display NGS",peptide,concentration not given,reference: input library,enrichment fold change,10.6
"PhoQ, residues 284 288 289 292 302 303 AGGCYF","PhoP, residues 12 14 15 18 19 VQALL (Escherichia coli, UniProt P23836)","Sort-seq, refers to: YFP reporter",E. coli,"PhoQ-PhoP variant library, added: 10 µM Mg2+","reference: high Mg2+ state, higher = stronger signaling",fold induction,10.5
